Published values gathered from unrelated publications.
Parts stem from different laboratories: compare values within a part only.
Sequence of UniProt Q9H1R3 (whole entry, looked up): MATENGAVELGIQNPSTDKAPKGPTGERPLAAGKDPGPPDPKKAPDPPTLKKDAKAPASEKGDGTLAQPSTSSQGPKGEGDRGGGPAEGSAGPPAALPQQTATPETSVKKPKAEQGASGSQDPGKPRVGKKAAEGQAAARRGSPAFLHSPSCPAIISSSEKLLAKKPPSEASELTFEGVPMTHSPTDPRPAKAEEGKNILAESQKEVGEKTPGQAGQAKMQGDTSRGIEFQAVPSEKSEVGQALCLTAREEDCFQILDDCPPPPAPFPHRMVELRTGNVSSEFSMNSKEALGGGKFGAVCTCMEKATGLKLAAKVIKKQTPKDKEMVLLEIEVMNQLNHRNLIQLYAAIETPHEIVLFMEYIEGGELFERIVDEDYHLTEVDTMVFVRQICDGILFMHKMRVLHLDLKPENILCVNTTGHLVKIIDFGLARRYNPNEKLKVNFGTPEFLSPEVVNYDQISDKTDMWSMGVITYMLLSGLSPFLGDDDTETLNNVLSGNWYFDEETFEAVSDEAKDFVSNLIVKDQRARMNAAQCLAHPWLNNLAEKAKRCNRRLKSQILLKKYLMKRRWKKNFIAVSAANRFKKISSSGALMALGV
Sequence of UniProt P29597 (whole entry, looked up): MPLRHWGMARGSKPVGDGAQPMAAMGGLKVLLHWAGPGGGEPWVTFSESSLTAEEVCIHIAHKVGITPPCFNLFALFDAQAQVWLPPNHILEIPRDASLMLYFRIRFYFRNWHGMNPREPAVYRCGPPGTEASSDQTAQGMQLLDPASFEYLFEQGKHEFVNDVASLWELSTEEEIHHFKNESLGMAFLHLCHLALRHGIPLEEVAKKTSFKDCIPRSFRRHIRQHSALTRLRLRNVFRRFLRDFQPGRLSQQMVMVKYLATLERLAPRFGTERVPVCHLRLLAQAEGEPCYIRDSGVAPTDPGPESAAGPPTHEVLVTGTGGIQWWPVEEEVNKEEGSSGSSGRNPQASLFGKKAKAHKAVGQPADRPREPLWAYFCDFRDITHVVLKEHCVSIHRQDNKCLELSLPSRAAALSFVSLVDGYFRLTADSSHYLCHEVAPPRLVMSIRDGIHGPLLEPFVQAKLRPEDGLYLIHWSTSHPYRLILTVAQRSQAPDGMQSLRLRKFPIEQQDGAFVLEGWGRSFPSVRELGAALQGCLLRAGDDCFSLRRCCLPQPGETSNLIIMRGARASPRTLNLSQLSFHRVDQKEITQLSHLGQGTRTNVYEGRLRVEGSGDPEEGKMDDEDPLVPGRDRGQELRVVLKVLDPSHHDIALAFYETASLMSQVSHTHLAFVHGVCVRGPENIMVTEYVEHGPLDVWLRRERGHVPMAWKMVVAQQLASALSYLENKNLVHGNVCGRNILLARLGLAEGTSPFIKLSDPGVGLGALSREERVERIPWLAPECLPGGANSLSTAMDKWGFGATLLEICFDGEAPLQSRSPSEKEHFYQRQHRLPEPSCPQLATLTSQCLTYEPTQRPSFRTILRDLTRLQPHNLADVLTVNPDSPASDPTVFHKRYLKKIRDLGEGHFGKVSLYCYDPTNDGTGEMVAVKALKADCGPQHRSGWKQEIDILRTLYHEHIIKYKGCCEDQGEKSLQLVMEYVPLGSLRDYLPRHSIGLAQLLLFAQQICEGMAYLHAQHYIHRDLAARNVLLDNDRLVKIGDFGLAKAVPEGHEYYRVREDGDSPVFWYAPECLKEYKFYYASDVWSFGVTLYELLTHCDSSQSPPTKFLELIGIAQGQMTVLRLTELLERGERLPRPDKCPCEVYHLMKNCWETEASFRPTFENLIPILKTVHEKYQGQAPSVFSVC
Sequence of UniProt Q9P289 (whole entry, looked up): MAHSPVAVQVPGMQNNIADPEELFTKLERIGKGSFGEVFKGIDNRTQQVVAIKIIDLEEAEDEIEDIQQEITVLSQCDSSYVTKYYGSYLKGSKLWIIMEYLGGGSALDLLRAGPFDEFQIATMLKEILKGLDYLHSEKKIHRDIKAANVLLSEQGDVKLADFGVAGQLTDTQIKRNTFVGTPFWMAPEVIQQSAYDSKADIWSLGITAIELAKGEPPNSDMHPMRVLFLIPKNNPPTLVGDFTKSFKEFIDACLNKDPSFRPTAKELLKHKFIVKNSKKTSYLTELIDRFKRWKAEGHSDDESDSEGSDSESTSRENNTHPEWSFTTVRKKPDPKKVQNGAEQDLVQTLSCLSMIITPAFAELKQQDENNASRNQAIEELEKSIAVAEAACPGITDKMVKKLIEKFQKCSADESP
Sequence of UniProt Q96KB5 (whole entry, looked up): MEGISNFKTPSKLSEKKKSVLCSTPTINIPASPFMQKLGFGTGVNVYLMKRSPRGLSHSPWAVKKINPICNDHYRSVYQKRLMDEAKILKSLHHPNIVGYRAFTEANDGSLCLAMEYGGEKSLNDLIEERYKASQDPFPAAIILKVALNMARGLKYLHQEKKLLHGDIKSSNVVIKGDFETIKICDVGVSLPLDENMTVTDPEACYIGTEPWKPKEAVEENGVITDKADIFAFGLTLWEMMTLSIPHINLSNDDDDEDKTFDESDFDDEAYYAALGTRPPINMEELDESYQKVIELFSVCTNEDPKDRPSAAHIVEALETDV
Sequence of UniProt Q9Y6E0 (whole entry, looked up): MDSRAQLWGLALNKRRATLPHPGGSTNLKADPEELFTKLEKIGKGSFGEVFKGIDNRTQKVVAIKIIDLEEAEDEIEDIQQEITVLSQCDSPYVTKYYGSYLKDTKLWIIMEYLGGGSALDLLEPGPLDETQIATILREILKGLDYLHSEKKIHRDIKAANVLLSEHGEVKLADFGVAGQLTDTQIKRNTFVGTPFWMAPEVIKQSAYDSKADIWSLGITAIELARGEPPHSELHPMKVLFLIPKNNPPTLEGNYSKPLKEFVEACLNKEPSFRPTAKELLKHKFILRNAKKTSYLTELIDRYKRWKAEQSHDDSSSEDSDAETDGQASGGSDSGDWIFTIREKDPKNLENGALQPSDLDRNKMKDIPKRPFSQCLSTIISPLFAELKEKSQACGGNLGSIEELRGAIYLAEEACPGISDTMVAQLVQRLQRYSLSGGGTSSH
Sequence of UniProt Q8TDX7 (whole entry, looked up): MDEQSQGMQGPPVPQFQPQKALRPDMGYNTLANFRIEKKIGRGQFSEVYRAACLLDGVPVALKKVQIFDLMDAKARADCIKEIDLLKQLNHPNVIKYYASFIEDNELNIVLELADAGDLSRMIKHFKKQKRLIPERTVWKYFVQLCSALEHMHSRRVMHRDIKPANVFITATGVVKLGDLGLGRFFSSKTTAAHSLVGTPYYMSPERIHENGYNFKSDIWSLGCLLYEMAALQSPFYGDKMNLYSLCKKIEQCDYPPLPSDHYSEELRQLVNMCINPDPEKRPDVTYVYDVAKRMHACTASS
Sequence of UniProt Q13555 (whole entry, looked up): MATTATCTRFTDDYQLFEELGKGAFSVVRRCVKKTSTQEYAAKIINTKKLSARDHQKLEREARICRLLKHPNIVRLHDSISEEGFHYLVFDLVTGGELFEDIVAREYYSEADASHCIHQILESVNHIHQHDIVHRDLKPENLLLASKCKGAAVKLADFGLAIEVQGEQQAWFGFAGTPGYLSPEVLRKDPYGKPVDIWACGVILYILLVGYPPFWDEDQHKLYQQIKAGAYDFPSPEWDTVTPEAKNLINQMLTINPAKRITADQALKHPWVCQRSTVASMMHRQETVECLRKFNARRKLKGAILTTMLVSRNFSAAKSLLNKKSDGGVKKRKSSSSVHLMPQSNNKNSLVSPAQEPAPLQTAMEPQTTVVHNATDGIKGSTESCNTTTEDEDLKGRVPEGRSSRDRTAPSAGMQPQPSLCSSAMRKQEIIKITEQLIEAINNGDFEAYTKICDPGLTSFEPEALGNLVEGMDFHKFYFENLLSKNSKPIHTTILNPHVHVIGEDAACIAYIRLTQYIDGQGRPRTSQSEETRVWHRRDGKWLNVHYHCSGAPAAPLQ
Sequence of UniProt Q9BUB5 (whole entry, looked up): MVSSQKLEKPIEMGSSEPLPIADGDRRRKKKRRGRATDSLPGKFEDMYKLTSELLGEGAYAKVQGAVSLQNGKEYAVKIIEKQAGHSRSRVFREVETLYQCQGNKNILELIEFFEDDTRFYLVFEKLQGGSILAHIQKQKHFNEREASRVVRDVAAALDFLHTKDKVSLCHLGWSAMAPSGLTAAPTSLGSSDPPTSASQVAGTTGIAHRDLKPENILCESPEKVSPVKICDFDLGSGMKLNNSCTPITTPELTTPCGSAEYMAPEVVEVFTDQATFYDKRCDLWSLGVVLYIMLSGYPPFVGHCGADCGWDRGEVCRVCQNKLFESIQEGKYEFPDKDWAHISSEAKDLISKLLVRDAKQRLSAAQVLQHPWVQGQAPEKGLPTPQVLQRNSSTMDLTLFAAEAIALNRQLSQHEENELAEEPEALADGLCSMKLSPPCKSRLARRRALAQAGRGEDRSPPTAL
Sequence of UniProt P05771 (whole entry, looked up): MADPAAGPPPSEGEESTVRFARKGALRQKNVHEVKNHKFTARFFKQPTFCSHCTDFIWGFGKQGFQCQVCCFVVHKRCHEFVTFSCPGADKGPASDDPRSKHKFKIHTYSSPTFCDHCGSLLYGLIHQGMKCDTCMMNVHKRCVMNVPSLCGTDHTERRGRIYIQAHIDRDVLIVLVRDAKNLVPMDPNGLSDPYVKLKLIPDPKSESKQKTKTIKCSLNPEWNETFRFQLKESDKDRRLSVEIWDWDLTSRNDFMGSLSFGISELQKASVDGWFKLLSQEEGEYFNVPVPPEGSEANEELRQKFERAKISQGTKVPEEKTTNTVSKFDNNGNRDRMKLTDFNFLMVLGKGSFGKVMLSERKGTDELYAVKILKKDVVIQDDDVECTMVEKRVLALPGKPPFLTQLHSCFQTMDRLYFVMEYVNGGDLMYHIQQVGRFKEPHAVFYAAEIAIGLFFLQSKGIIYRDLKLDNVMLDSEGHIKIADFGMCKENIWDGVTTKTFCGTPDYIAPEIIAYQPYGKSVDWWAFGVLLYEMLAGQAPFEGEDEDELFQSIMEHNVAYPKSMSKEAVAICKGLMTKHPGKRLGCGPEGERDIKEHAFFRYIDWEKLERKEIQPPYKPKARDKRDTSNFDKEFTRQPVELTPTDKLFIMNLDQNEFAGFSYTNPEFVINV

Series 1
Structure (SMILES): N/C(=N\[N+](=O)[O-])N/N=C\c1ccc(-c2cccc([N+](=O)[O-])c2)o1
Effect on: enzyme activity
Action: inhibitor
Concentration: 0.5 µM
Baseline: control
target | remaining activity
TYK2 (Homo sapiens, UniProt P29597) | 110%
MYLK2 (Homo sapiens, UniProt Q9H1R3) | 100%
STK26 (Homo sapiens, UniProt Q9P289) | 99.5%
STK24 (Homo sapiens, UniProt Q9Y6E0) | 87.7%
NEK7 (Homo sapiens, UniProt Q8TDX7) | 102%
PBK (Homo sapiens, UniProt Q96KB5) | 111%
MKNK1 (Homo sapiens, UniProt Q9BUB5) | 97.4%
Protein kinase C beta type, isoform beta-II (PRKCB, Homo sapiens, UniProt P05771) | 100%
CAMK2G (Homo sapiens, UniProt Q13555) | 82.2%

Series 2
Compound: O=C1CCC(N2Cc3c(ccc4c3OCC43CCN(Cc4ccccc4)CC3)C2=O)C(=O)N1 (centres unmarked)
Sample: plasma
species | route | dose | time | concentration
male CD-1 mouse | intravenous | 1 mg/kg | 1 h | 118 ng/mL
male Sprague-Dawley rat | intravenous | 1 mg/kg | 6 h | 29.5 ng/mL
male Sprague-Dawley rat | intravenous | 1 mg/kg | 8 h | 16 ng/mL
male CD-1 mouse | oral | 3 mg/kg | 6 h | 46.1 ng/mL
male Sprague-Dawley rat | oral | 3 mg/kg | 15 min | 34.1 ng/mL
male Sprague-Dawley rat | intravenous | 1 mg/kg | 2 h | 118 ng/mL
male Sprague-Dawley rat | oral | 3 mg/kg | 4.98 min | 3.4 ng/mL
male CD-1 mouse | oral | 3 mg/kg | 30 min | 376 ng/mL
male Sprague-Dawley rat | oral | 3 mg/kg | 6 h | 110 ng/mL
male Sprague-Dawley rat | intravenous | 1 mg/kg | 30 min | 251 ng/mL
male CD-1 mouse | intravenous | 1 mg/kg | 4.98 min | 299 ng/mL
male Sprague-Dawley rat | intravenous | 1 mg/kg | 1 h | 181 ng/mL
male CD-1 mouse | intravenous | 1 mg/kg | 15 min | 219 ng/mL
male Sprague-Dawley rat | intravenous | 1 mg/kg | 4 h | 67.4 ng/mL
male Sprague-Dawley rat | oral | 3 mg/kg | 1 h | 106 ng/mL
male Sprague-Dawley rat | oral | 3 mg/kg | 30 min | 62.7 ng/mL

Series 3
Effect on: dsDNA unwinding
Technique: PicoGreen fluorescence
Sample: annealed dsDNA substrate
Concentration: 20 µM
Compound | effect [%]
O=C(Nc1ccc2c(O)cc(S(=O)(=O)[O-])cc2c1)Nc1ccc2c(O)cc(S(=O)(=O)[O-])cc2c1.[Na+].[Na+] | 16.4
C[CH2][Hg][S]c1ccccc1C(=O)[O-].[Na+] | -0.8
N=C(N)NN=C1C=CC(=NNC(N)=S)C=C1 | 11
CCN(CC)C(=S)SSC(=S)N(CC)CC | 12.2
N.N.[Cl][Pt][Cl] | -3.87
C[C@H](NC(=O)/C(C#N)=C/c1cccc(Br)n1)c1ccccc1 | 2.95
S=C(S)N1CCCC1 | 6.05
CN(C)CCOC(c1ccccc1)c1ccccc1.Cn1c(=O)c2[nH]c(Cl)nc2n(C)c1=O | 7.88
O=C(/C=C/c1ccc2ccccc2n1)c1ccncc1 | 1.29
O=C(O[C@@H]1Cc2c(O)cc(O)cc2O[C@@H]1c1cc(O)c(O)c(O)c1)c1cc(O)c(O)c(O)c1 | -6.08
CCn1c(N)c(C(=O)NC)c(=O)c2ccc(C#C[C@@](C)(O)COC)nc21 | -3.15
CC(C)n1nc(C#Cc2ccccc2)c2c(N)ncnc21 | 3.71
O=c1c(O)c(-c2cc(O)c(O)c(O)c2)oc2cc(O)cc(O)c12 | 8.26
CO/N=C(\C(=O)N[C@@H]1C(=O)N2C(C(=O)O)=C(CSC(=O)c3ccco3)CS[C@H]12)c1csc(N)n1 | 1.43
O=[N+]([O-])C=Cc1ccc2c(c1)OCO2 | 4.9

Series 4
Cell line: Huh-7
Concentration: 10 µM
Time: 24 h
Compound | viability
C[C@]12CCC(=O)C=C1C=C[C@@H]1[C@@H]2CC[C@@]2(C)[C@H]1CC[C@@]2(O)CCC(=O)O | 101%
C[N+]12CCC(CC1)C(OC(=O)C(O)(c1ccccc1)c1ccccc1)C2 (centres unmarked) | 103%
CN1C[C@H](C(=O)N[C@]2(C)O[C@@]3(O)[C@@H]4CCCN4C(=O)[C@H](Cc4ccccc4)N3C2=O)C=C2c3cccc4[nH]cc(c34)C[C@H]21 | 91.3%
Cc1ccc(/N=C/N(C)/C=N/c2ccc(C)cc2C)c(C)c1 | 92.3%
